Assay results collected from several papers.
Every numbered part comes from another study and shows a few of its results, in no order. Changes are numbered by the printed parent chain.

Series 1
Target: Prothrombin, mature alpha-thrombin (F2, Homo sapiens, UniProt P00734)
Technique: aptamer microarray, sandwich
Form: DNA with 2'F-ANA
Matrix: in vitro
Concentration: 200 nM
Notes: whole 15-mer aptamer, many near background
Together with: Cy3 exosite-II aptamer, 400 nM
Direction: higher = stronger binding
Strand: GGTTGGTGTGGTTGG
`2'F-ANA at 1 3 4 6 12 13` — result for “mean fluorescence intensity”: 278 a.u.
Under “mean fluorescence intensity”, `2'F-ANA at 1 3 8 11 13 15` is recorded as 275 a.u.
`2'F-ANA at 2 6 8 9 15`: “mean fluorescence intensity” 424 a.u.
`2'F-ANA at 1 5 6 11 13 14 15`: “mean fluorescence intensity” 47 a.u.
For `2'F-ANA at 3 6 7 8 9 11 13 15`, “mean fluorescence intensity” read 814 a.u.
For `2'F-ANA at 2 6 9 10 11 12 14 15`, “mean fluorescence intensity” read 79.2 a.u.
Under “mean fluorescence intensity”, `2'F-ANA at 1 2 3 5 11 13 15` is recorded as 50.5 a.u.
`2'F-ANA at 3 5 8 9 10 11 12 15` — result for “mean fluorescence intensity”: 64.9 a.u.
`2'F-ANA at 2 5 6 7 8 10 11 12 13 14` — result for “mean fluorescence intensity”: 60.1 a.u.
Under “mean fluorescence intensity”, `2'F-ANA at 1 5 6 8 9 13 14` is recorded as 54.3 a.u.
Under “mean fluorescence intensity”, `2'F-ANA at 1 2 3 5 6 7 9 14 15` is recorded as 62.2 a.u.
`2'F-ANA at 1 2 3 4 5 6 7 8 13 14`: “mean fluorescence intensity” 215 a.u.
For `2'F-ANA at 3 5 7 8 12 14 15`, “mean fluorescence intensity” read 70.9 a.u.
`2'F-ANA at 1 2 4 5 6 7 8 10 11 12 13 15` — result for “mean fluorescence intensity”: 48.8 a.u.
`2'F-ANA at 1 2 5 7 9 12 13 15` — result for “mean fluorescence intensity”: 73.2 a.u.
Under “mean fluorescence intensity”, `2'F-ANA at 1 2 8 9 13 14` is recorded as 50.1 a.u.
Under “mean fluorescence intensity”, `2'F-ANA at 3 4 6 7 8 9 10 13 14` is recorded as 186 a.u.
`2'F-ANA at 6 9 10 11 12 14`: “mean fluorescence intensity” 174 a.u.
`2'F-ANA at 4 5 6 7 8 9 10 12 13` — result for “mean fluorescence intensity”: 46.7 a.u.
`2'F-ANA at 6 7 8 11 12 13 14 15`: “mean fluorescence intensity” 215 a.u.
For `2'F-ANA at 2 7 12 13 15`, “mean fluorescence intensity” read 631 a.u.
For `2'F-ANA at 1 4 5 8 12 15`, “mean fluorescence intensity” read 136 a.u.
Under “mean fluorescence intensity”, `2'F-ANA at 2 5 6 8 12 13` is recorded as 145 a.u.

Series 2
Target: Ras GTPase-activating protein-binding protein 1, full length (G3BP1, Homo sapiens, UniProt Q13283)
Chain of UniProt Q13283 (whole entry, looked up): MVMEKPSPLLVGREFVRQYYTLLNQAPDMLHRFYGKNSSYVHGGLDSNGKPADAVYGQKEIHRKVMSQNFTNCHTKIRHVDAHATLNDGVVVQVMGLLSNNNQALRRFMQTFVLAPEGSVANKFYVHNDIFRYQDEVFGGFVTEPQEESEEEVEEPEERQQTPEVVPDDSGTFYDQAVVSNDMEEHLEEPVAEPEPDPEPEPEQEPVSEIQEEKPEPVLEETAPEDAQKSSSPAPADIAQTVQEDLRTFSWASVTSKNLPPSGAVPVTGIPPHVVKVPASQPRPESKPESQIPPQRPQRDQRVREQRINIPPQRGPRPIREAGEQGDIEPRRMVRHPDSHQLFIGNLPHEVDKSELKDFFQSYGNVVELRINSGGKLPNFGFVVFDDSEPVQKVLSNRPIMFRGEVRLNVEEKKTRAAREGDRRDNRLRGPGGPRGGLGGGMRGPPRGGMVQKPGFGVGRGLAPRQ
Technique: RNA Bind-n-Seq
Form: RNA
Matrix: in vitro
Concentration: 200 nM
Notes: whole 134-nt RNA, ends assumed
Together with: 150 mM LiCl
Baseline: input library
Direction: higher = stronger binding
All molecules: 7-deaza-guanosine replaces G
For `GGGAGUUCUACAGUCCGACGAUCGUCCUGUGCUACACAUCGUAUGUACCGAAUCAAAUUUUUAAAUUUAAACCCCCCCAAAAAAGUAUUAUGUUACGCCGUUCGGAUCUGCACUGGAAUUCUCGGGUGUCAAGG`, the log2 enrichment was 1.22.
For `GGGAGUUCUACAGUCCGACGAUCUCCUGUGCUACACAUCGUAUGUACCGAAUCGGUUUUUUUGGAAAAAAAGGAAAAAAAGGAAAGUAUUAUGUUACGCCGUUCGGAUCUGCAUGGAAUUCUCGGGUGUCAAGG`, the log2 enrichment was -2.04.
With `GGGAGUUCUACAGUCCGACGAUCACCAUGCAGGUGGGCAUCUUUGGGAAGUGGGGCAAGAAAGGGAUAGGGAGGGGGGUAACACUUUGGGAACAGGUGGUCCCAGGUCGUUUCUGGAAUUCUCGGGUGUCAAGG` the log2 enrichment was 0.387.
With `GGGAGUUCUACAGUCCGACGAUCUAACUUUAGAGGAGGAUCUGAUGGAUAUGGCAGUGGACGUGGAUUUGGGGAUGGCAAUAAUGGGUAUGGAGGAGGACCUGGAGGUGGCAAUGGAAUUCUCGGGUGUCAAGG` the log2 enrichment was 0.37.
`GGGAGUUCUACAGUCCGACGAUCUAACUUUAGAGGAGGAUCUGAUGGAUAUGGCAGUGGACGUGGAUUUGGGGAUGGCUAUAAUGGGUAUGGAGGAGGACCUCGAGGUGGCAAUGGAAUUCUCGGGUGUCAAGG` has a log2 enrichment of 0.316.
`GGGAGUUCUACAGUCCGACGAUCUCUCUUGCUCAAGUUUUCUCUCACAGAUGACAGCCACCUACCACAUAACAUGACCAGCAAACGGACUGUUCCUAGUCCAGAGGGCCUUGCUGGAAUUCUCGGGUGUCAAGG` gave a log2 enrichment of 1.46.
With `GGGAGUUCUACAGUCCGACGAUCCUCAAGUCCUGUGCUACACAUCGUAUGUACCGAAUCGGAAGGGGAAGGAAGGGGAAAGUAUUAUGUUACGCCGUUCGGAUCUGCACUUCCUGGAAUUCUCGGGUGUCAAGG` the log2 enrichment was 0.149.
With `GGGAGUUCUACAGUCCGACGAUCAGUCCUGUGCUACACAUCGUAUGUACCGAAUCGGGCCCCGGGCCCCGGGCCCCGGGGAAAGUAUUAUGUUACGCCGUUCGGAUCUGCACUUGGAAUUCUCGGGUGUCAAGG` the log2 enrichment was -1.51.
`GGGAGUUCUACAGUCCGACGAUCCAAGUCCUGUGCUACACAUCGUAUGUACCGAAUCGGCCCGGGGCCCGGGGCCCGGAAAGUAUUAUGUUACGCCGUUCGGAUCUGCACUUCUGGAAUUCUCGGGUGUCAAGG` has a log2 enrichment of -0.625.
For `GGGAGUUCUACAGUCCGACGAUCAAGUCCUGUGCUACACAUCGUAUGUACCGAAUCGGGUUUGGGAAAGGGUUUUUGGGAAAGUAUUAUGUUACGCCGUUCGGAUCUGCACUUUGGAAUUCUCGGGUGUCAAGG`, the log2 enrichment was -0.94.
For `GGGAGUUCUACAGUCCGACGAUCCCUGUGCUACACAUCGUAUGUACCGAAUCGGAAAAAAAGGAAAAAAAGGGGAAAAAAAGGAAAGUAUUAUGUUACGCCGUUCGGAUCUGCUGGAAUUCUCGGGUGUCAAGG`, the log2 enrichment was -0.429.

Series 3
Target: CCNE2, cyclin fold, Cln2 fusion (human)
Technique: yeast growth competition, sequencing
Matrix: yeast
Notes: strong parent motif
Baseline: not given
Direction: higher = stronger binding
Parent: CDC25A docking peptide (human); PPHRRRLLFACSP; partner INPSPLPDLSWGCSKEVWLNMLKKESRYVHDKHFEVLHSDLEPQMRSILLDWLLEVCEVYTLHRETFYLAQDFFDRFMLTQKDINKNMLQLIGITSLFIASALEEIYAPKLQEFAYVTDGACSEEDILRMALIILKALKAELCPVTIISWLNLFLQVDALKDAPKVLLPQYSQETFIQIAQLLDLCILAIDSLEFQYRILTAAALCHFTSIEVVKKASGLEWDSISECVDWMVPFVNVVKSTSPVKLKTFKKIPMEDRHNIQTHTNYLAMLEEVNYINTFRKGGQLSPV
For `PPHRRRLEFACSP [L8E]`, “normalised enrichment score” read 3.41.
For `PPHRRRLLKACSP [F9K]`, “normalised enrichment score” read 0.847.
For `PPHRRRLLFICSP [A10I]`, “normalised enrichment score” read 1.76.
`PWHRRRLLFACSP [P2W]`: “normalised enrichment score” 1.43.
`PPHRRRLLFACEP [S12E]` — result for “normalised enrichment score”: 2.46.
For `PPHRRRLLFACCP [S12C]`, “normalised enrichment score” read 1.74.
`PPHRRALLFACSP [R6A]`: “normalised enrichment score” 0.767.
Under “normalised enrichment score”, `PPFRRRLLFACSP [H3F]` is recorded as 2.56.
Under “normalised enrichment score”, `PPHRRRLLAACSP [F9A]` is recorded as 1.26.
For `PPHRRRLLFACSL [P13L]`, “normalised enrichment score” read 1.2.
Under “normalised enrichment score”, `PPHRRRFLFACSP [L7F]` is recorded as 0.843.
Under “normalised enrichment score”, `PPHRRRLLFACSG [P13G]` is recorded as 1.9.
`PPHHRRLLFACSP [R4H]` — result for “normalised enrichment score”: 0.526.
For `PPHRRRLLCACSP [F9C]`, “normalised enrichment score” read 0.592.
Under “normalised enrichment score”, `PPHRRRLPFACSP [L8P]` is recorded as 0.86.
`PPHRRRLLFANSP [C11N]` — result for “normalised enrichment score”: 2.78.
`PPHRIRLLFACSP [R5I]` — result for “normalised enrichment score”: 1.67.
For `PPHRRRLLFAMSP [C11M]`, “normalised enrichment score” read 1.12.
For `PFHRRRLLFACSP [P2F]`, “normalised enrichment score” read 1.16.
Under “normalised enrichment score”, `PPHRRTLLFACSP [R6T]` is recorded as 1.22.
Under “normalised enrichment score”, `PPHRRRLLFLCSP [A10L]` is recorded as 1.35.
`PPHMRRLLFACSP [R4M]` — result for “normalised enrichment score”: 0.801.
`PPHRRRLLFACSW [P13W]`: “normalised enrichment score” 0.649.
`PPHRRRLLFAASP [C11A]`: “normalised enrichment score” 2.82.
Under “normalised enrichment score”, `PPHRRRLLFACSN [P13N]` is recorded as 2.18.

Series 4
Target: Histone acetyltransferase KAT6A, winged helix 2, GST fusion (KAT6A, Homo sapiens, UniProt Q92794, residues 85-181)
Technique: protein binding microarray
Form: double-stranded DNA, one strand shown
Matrix: in vitro
Concentration: not given
Notes: 8-mer, flanks averaged, mean of 2 arrays, mostly near background
Baseline: not given
Direction: higher = stronger binding
Residues (chain): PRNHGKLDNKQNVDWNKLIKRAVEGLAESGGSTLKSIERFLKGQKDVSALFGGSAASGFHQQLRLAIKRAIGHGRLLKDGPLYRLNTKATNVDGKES
`CAATGATA` gave an E-score of -0.0935.
The E-score of `ATCATGAA` is reported as -0.0885.
For `AGCCTTCC`, the E-score was -0.0233.
With `GCCCCGCA` the E-score was 0.185.
The E-score of `AGTTGGCA` is reported as 0.0128.
The E-score of `AACCTGGA` is reported as -0.0553.
For `ACAGGTGC`, the E-score was -0.033.
For `ATCCTTGA`, the E-score was -0.0374.
`GAAGCTAC` gave an E-score of 0.139.
`CGGCAAGA` gave an E-score of 0.1.
`GAGCCAAC` gave an E-score of 0.00259.
`TGAGTAAA` has an E-score of 0.0416.
With `GGCAGAAC` the E-score was 0.0852.
The E-score of `CGAATGTA` is reported as -0.15.
For `CGGAAGAA`, the E-score was -0.0464.
For `TCATTCCA`, the E-score was -0.0155.
The E-score of `ATTGTGCC` is reported as -0.0539.
The E-score of `GCCGCGCC` is reported as 0.243.
`GCCGGACA` gave an E-score of 0.174.
`TAACTACA` gave an E-score of 0.0247.
For `ACTACCAC`, the E-score was -0.116.

Repeated from above (series 3):
For `PPHRRRLLFACCP [S12C]`, “normalised enrichment score” read 1.74.
`PPHRRALLFACSP [R6A]`: “normalised enrichment score” 0.767.
Under “normalised enrichment score”, `PPFRRRLLFACSP [H3F]` is recorded as 2.56.
Under “normalised enrichment score”, `PPHRRRLLAACSP [F9A]` is recorded as 1.26.
For `PPHRRRLLFACSL [P13L]`, “normalised enrichment score” read 1.2.
Under “normalised enrichment score”, `PPHRRRFLFACSP [L7F]` is recorded as 0.843.
Under “normalised enrichment score”, `PPHRRRLLFACSG [P13G]` is recorded as 1.9.
`PPHHRRLLFACSP [R4H]` — result for “normalised enrichment score”: 0.526.
For `PPHRRRLLCACSP [F9C]`, “normalised enrichment score” read 0.592.
Under “normalised enrichment score”, `PPHRRRLPFACSP [L8P]` is recorded as 0.86.
`PPHRRRLLFANSP [C11N]` — result for “normalised enrichment score”: 2.78.
